# Experimental data of several laboratories.
# Every numbered part comes from another study and shows a few of its results, in no order. Substitutions count along the parent as printed.

# Set 1 — technique: RNA Bind-n-Seq; molecule type: RNA; medium: in vitro; concentration: 1 µM; setting: whole 134-nt RNA, ends assumed; added: 150 mM KCl; reference: input library; reading: higher = stronger binding
# Target: Ras GTPase-activating protein-binding protein 1, RRM domain (G3BP1, Homo sapiens, UniProt Q13283)
# Sequence of UniProt Q13283 (whole entry, looked up): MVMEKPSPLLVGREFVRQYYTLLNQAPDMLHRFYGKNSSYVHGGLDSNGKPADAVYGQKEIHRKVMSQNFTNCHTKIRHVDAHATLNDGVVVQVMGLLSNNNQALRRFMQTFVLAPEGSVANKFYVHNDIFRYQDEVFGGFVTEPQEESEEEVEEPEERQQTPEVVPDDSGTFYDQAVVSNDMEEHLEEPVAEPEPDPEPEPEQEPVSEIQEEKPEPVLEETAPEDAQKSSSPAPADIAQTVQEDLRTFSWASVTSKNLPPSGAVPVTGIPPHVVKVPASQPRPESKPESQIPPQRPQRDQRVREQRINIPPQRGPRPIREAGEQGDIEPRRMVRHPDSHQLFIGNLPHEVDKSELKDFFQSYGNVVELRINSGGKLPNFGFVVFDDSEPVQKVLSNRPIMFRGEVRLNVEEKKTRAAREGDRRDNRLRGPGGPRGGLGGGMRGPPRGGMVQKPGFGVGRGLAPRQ
# All sequences stand within: GGGAGUUCUACAGUCCGACGAUC … UGGAAUUCUCGGGUGUCAAGG
Sequence,log2 enrichment
GCAGGAAGUAACAACAAAUGGAAAUGCUUCGGAUAGUGGCAGGGGUGGGGGUUGCUAAGGAAAGGGUGGGAUGGGAGUGGGUAAAGAGUU,1.39
CCUGUGCUACACAUCGUAUGUACCGAAUCGGGGAAAAAAGGGGAAAAAAGGGAAAAAAGGGAAAGUAUUAUGUUACGCCGUUCGGAUCUG,-0.0545
AAGUCCUGUGCUACACAUCGUAUGUACCGAAUCGGGCCCCCGGCCCCCGGCCCCCGGAAAGUAUUAUGUUACGCCGUUCGGAUCUGCACU,-0.497
AGUCCUGUGCUACACAUCGUAUGUACCGAAUCAAACCCAAAUUUUUAAACCCCCAAAAAAGUAUUAUGUUACGCCGUUCGGAUCUGCACU,-0.346
CUCAAGUCCUGUGCUACACAUCGUAUGUACCGAAUCGGUGGAAAGGUUUUUGGAAAGUAUUAUGUUACGCCGUUCGGAUCUGCACUUCCA,-0.224
GCAGGAAGUAAAAACAAAUGGAAAUGCUUCGGAUAUUGGCAGGGGUGGGGGUUGCUAAGGAAAGGGUGGGAUGGGAGUGGGUAAAGAGUU,1.06
AGUCCUGUGCUACACAUCGUAUGUACCGAAUCGGCCCCGGGGCCCCGGGGCCCCGGGGAAAGUAUUAUGUUACGCCGUUCGGAUCUGCAC,-1.31

# Set 2 — technique: protein binding microarray; molecule type: double-stranded DNA, one strand shown; medium: in vitro; concentration: not given; reference: not given; reading: higher = stronger binding
# Target: Histone acetyltransferase KAT6A, both winged helices, GST fusion (KAT6A, Homo sapiens, UniProt Q92794, residues 1-181)
# Setting: 8-mer, flanks averaged, mean of 2 arrays, mostly near background
# Target sequence (chain): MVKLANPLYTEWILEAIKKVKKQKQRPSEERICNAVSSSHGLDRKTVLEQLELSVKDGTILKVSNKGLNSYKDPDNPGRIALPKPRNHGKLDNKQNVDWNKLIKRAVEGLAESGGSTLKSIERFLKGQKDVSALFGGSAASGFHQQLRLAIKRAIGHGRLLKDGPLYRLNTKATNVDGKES
Sequence,E-score
GTGCAAAC,0.0614
AAAAGGGT,-0.0961
GGCATACC,-0.0258
CGTTTCTC,0.0151
CGCGTACG,0.358
CTCGAAGA,-0.0937
AGGGTGCG,0.0577

# Set 3 — target: CCNF, cyclin fold, Cln2 fusion (human); technique: yeast growth competition, sequencing; medium: yeast; setting: strong parent motif; reference: not given; reading: higher = stronger binding
# Starting sequence: RBL1 docking peptide (human); GSAKRRLFGEDPP
Substitution,normalised enrichment score
GSAKIRLFGEDPP [R5I],0.201
GSAKRRLFGNDPP [E10N],6.7
GEAKRRLFGEDPP [S2E],5.5
GSYKRRLFGEDPP [A3Y],4.7
GSAKRRWFGEDPP [L7W],1.86
GSAKGRLFGEDPP [R5G],0.599
GSAKRRLFGEDPI [P13I],7.96
GSAKRRLFGERPP [D11R],5.84

# Mixed results
Substance,target,test,test system,conditions,scale,quantity,result
"PhoQ, residues 284 288 289 292 302 303 NLMGRA","PhoP, residues 12 14 15 18 19 NNFVT (Escherichia coli, UniProt P23836)","Sort-seq, measured: YFP reporter",E. coli,"PhoQ-PhoP variant library, added: 10 µM Mg2+","reference: high Mg2+ state, higher = stronger signaling",fold induction,16.2

# Some of these lines once more (set 2):
Sequence,E-score
GGCATACC,-0.0258
